Measured values of several laboratories.
Numbered parts are unrelated; each lists some results of a single study. Changes are numbered by the printed parent chain.

Study 1
Target: Sal-like protein 4, full length isoform A (SALL4, Homo sapiens, UniProt Q9UJQ4, residues 1-1053)
Chain of UniProt Q9UJQ4 (whole entry, looked up): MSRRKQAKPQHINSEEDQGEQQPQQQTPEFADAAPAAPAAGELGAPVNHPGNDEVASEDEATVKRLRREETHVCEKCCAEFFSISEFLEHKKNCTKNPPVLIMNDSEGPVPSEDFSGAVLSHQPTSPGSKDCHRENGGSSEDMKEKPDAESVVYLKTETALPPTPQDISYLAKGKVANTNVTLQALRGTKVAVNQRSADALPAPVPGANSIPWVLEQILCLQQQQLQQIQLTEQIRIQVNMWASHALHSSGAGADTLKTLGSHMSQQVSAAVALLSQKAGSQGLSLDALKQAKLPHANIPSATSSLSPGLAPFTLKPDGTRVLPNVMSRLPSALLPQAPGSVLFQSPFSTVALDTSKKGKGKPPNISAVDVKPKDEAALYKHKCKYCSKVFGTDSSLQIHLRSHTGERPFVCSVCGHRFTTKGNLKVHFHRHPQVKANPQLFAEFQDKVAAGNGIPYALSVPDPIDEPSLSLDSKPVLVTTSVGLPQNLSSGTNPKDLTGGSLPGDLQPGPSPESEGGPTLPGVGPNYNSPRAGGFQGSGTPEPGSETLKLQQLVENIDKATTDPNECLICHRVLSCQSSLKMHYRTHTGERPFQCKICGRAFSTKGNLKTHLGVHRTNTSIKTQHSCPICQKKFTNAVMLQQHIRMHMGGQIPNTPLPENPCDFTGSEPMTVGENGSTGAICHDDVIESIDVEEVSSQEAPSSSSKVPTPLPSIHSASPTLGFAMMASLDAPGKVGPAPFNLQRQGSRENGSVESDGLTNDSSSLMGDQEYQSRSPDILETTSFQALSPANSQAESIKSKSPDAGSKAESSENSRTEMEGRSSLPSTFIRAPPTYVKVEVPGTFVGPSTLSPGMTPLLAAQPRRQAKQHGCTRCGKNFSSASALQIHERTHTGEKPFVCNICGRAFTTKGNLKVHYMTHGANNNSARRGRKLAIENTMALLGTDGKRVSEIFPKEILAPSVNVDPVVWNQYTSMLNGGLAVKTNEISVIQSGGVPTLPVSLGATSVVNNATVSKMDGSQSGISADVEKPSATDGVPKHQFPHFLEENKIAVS
Method: universal PBM
Form: double-stranded DNA, one strand shown
Medium: in vitro
Concentration: 600 nM
Notes: 8-mer, flanks averaged, mean of replicates
Direction: higher = stronger binding
`TAACCGCA` gave an E-score of 0.052.
The E-score of `TGGGCGAA` is reported as -0.0952.
`TAGACTCA` gave an E-score of 0.0597.
The E-score of `ACTAACCG` is reported as -0.104.
With `GGAGAGCA` the E-score was -0.0802.
The E-score of `ATAAGACC` is reported as 0.148.
For `AGAACGTC`, the E-score was 0.107.
For `ACCCAGCG`, the E-score was -0.378.
`AATCCTGA` has an E-score of 0.0997.
`ACCCGTTA` has an E-score of 0.0586.
`GAGGCTCA` gave an E-score of -0.243.
The E-score of `AGTTCGCA` is reported as -0.154.
For `ACAATGGT`, the E-score was 0.0508.
For `CCTCGCAA`, the E-score was -0.0468.
With `GACCGATC` the E-score was -0.229.
With `CAGTTCAC` the E-score was 0.0166.
With `CCACTCGA` the E-score was -0.0945.
`GTATCCGA` has an E-score of -0.112.
`CAACACTA` gave an E-score of 0.117.
With `GGACGCCC` the E-score was -0.316.

Study 2
Target: CCNB3, cyclin fold, Cln2 fusion (human)
Method: yeast growth competition, sequencing
Medium: yeast
Notes: weak parent motif
Reference: not given
Direction: higher = stronger binding
Parent: SLBP docking peptide (human); ARYKRKLLINDFG; partner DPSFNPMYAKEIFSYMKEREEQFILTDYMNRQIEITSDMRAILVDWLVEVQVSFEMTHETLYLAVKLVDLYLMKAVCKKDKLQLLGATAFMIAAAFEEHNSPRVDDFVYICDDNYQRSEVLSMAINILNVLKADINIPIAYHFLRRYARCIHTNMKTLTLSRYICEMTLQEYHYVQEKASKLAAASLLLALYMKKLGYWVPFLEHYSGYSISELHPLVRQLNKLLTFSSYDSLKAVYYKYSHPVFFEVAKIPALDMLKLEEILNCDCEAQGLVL
`N10D`: “normalised enrichment score” 0.103.
`R2H`: “normalised enrichment score” 0.115.
Under “normalised enrichment score”, `K6M` is recorded as -0.000153.
`G13W`: “normalised enrichment score” 0.631.
`G13R` — result for “normalised enrichment score”: 0.0308.
`A1Q` — result for “normalised enrichment score”: -0.55.
Under “normalised enrichment score”, `K6T` is recorded as 0.318.
`L7I`: “normalised enrichment score” -0.51.
For `I9R`, “normalised enrichment score” read -0.134.
For `L7S`, “normalised enrichment score” read -0.281.
Under “normalised enrichment score”, `K6H` is recorded as -0.715.
Under “normalised enrichment score”, `N10W` is recorded as 0.435.
`N10S` — result for “normalised enrichment score”: 0.288.

Study 3
Target: Interferon regulatory factor 5, full length, phosphomimetic (IRF5, Homo sapiens, UniProt Q13568-2, residues 1-514, K96S/S451D/S453D/S456D/S462D)
Method: protein-binding microarray
Form: double-stranded DNA, one strand shown
Medium: in vitro
Concentration: 250 nM
Notes: 60-bp whole probe
Together with: salmon DNA 0.4 mg/ml
Reference: random background probes
Direction: higher = stronger binding
Constant ends, left off below: GCCTAGCAC … GTCTTGATTCGCTTGACGCTGCTG
`TGGGCACACTTTGGGTCCTGGTGCTAG` has a log fluorescence of -0.797 z-score.
The log fluorescence of `TTAGGTTACGACTTTCGGTTAGTGCTA` is reported as 9.63 z-score.
The log fluorescence of `TTAGGTTGCCTTTTCCTTTAGTGCTAG` is reported as 0.472 z-score.
With `AACGGTATCGGGACTGGGGACGTGCTA` the log fluorescence was 1.55 z-score.
For `TTAGATAACAGTCTCGATTAGTGCTAG`, the log fluorescence was 1.1 z-score.
`GACGGGTTCGGTTTCGGGACGTGCTAG` has a log fluorescence of 3.16 z-score.
`TTAGGTTTCGGTATCAGTTAGTGCTAG` gave a log fluorescence of 10.3 z-score.
For `GGCGGTATCGGTCTCGGGACGTGCTAG`, the log fluorescence was 5.63 z-score.
With `AACACAAACCCGCTGGAGTTGTGCTAG` the log fluorescence was -0.282 z-score.
`CTTGTTCTTAGCTTGGGTCTGTGCTAG` gave a log fluorescence of 0.0457 z-score.
The log fluorescence of `TCACCTTTCTCCATGGGACTGTGCTAG` is reported as 0.741 z-score.
For `TTAGATATCAGTTTCGCTTAGTGCTAG`, the log fluorescence was 8.34 z-score.
The log fluorescence of `TTATATTTCAGTTTCGATTAGTGCTAG` is reported as 10.3 z-score.

Other studies, line by line
`PhoQ, residues 284 288 289 292 302 303 TTCLQL` has a fold induction of 3.86 (PhoP, residues 12 14 15 18 19 TPLRH (Escherichia coli, UniProt P23836); Sort-seq, refers to: YFP reporter; E. coli; PhoQ-PhoP variant library, together with: 10 µM Mg2+; reference: high Mg2+ state, higher = stronger signaling).

Excerpt of the above (study 2):
Under “normalised enrichment score”, `K6M` is recorded as -0.000153.
`G13W`: “normalised enrichment score” 0.631.
`G13R` — result for “normalised enrichment score”: 0.0308.
`A1Q` — result for “normalised enrichment score”: -0.55.
Under “normalised enrichment score”, `K6T` is recorded as 0.318.
